Measured values from different studies.
Compare with care: the assays were run in different laboratories. Numbers after ± are the reported error.

SMILES = COc1cc2c(Oc3ccc4[nH]c(C)cc4c3F)ccnc2cc1OCC1(N)CC1; test system = paediatric recurrent refractory sarcoma; setting = 8 mg; endpoint = grade 3 Cholesterol elevation; value = 0%
SMILES = N=C(N)NCCC[C@@H](NC(=O)[C@@H](N)Cc1ccccc1)C(=O)N[C@@H](Cc1ccccc1)C(=O)N[C@@H](CCCCN)C(N)=O; test = LC-MS; test system = human; setting = 15 mg, 23.83 h; endpoint = mean fraction excreted in urine; value = 2.22%
SMILES = O=C(c1ccc(F)c(F)c1Nc1ccc(I)cc1F)N1CC(O)([C@@H]2CCCCN2)C1; test system = human patients; setting = oral, dose not given, dose escalation, tablet; endpoint = serious adverse events; value = 33%
SMILES = N#C[C@@H]1CC(F)(F)CN1C(=O)CNC(=O)c1ccnc2ccc(OCCCN3CCN(C(=O)CN4CCN(CC(=O)[O-])CCN(CC(=O)[O-])CC4)CC3)cc12.[18F-].[Al+3]; test system = healthy rat, large intestine; setting = iv, 2 h; endpoint = tissue uptake; value = 1.66 ± 0.2 %ID/g
SMILES = N#C[C@H](O[C@@H]1O[C@H](CO[C@@H]2O[C@H](CO)[C@@H](O)[C@H](O)[C@H]2O)[C@@H](O)[C@H](O)[C@H]1O)c1ccccc1; test system = Sprague Dawley rat, plasma; setting = oral, 3.34 g lyophilized powder/kg, low dose; endpoint = Tmax; value = 28.8 ± 23.4 min
SMILES = COc1ccc(-c2c(-c3ccc(C#N)c(F)c3)nc(N3CCC(N)CC3)n(C)c2=O)cc1F; test = refers to: Thrombocytopenia; test system = neuroendocrine neoplasm patients; setting = oral, 60 mg, any grade, dose expansion; endpoint = treatment-related adverse event incidence; value = 69%
SMILES = C[C@@H](NC(=O)N1C(=O)[C@H](Cc2ccnc(N)c2)[C@H]1C(=O)O)C1CCCCC1; test system = healthy adult Chinese volunteers; setting = continuous intravenous infusion, 0.6 mg/kg/h, 5-day infusion, CTCAE 5.0 grading; endpoint = incidence of urine occult blood positive; value = 0%
SMILES = O=C(Nc1ccccc1)C1CCN(C(=O)Oc2cccnc2)CC1; test = psychotropic effects VAS; test system = healthy women; setting = 100 mg; how to read = relative to: pre-dose baseline, direction not given; endpoint = change in internal perception score; value = 0
SMILES = CCc1ccc(CC/C=C/c2ccc3c(c2)C(=O)CC3)cc1; test system = Sprague-Dawley rat, male, serum; setting = oral, 120 mg/kg/day, 14 days; endpoint = total bilirubin; value = 1.62 µM
SMILES = CC(C)(c1ccccc1)c1cc(-n2nc3ccccc3n2)c(O)c(C(C)(C)c2ccccc2)c1; test = exposure assessment; test system = human, age 3-6 years; setting = spray sunscreen; endpoint = mean daily dermal uptake; value = 11.8 ng/kg body weight/day
SMILES = O.O.O.O.O.O.[Cl-].[Cl-].[Co+2]; test system = rat female, urine; setting = oral, 10 mg/kg single, day 3; endpoint = urinary cobalt creatinine-corrected; value = 0.0357 µg/µmol creatinine
SMILES = CO[C@H]1C[C@@H]2CC[C@@H](C)[C@@](O)(O2)C(=O)C(=O)N2CCCC[C@H]2C(=O)O[C@H]([C@H](C)C[C@@H]2CC[C@@H](OC(=O)NCCOCCOCCOCCOCCOCCOCCOCCOCCC(=O)N3CCc4cc(Cn5nc(-c6ccc7oc(N)nc7c6)c6c(N)ncnc65)ccc4C3)[C@H](OC)C2)C[C@@H](O)[C@H](C)/C=C(\C)[C@@H](O)[C@@H](OC)C(=O)[C@H](C)C[C@H](C)/C=C/C=C/C=C/1C; test system = patients with advanced solid tumours; setting = intravenous, 16 mg weekly, grade 3 or higher; endpoint = diarrhoea incidence; value = 0%
SMILES = O=C1Nc2cc3[nH]nc(-c4ccncc4)c3cc2CN1Cc1ccccc1; test = refers to: Dyspepsia; test system = patients with advanced solid tumours; setting = intravenous, dose not given; endpoint = patients with TEAE; value = 11%
SMILES = C[C@]1(CO)Cc2ncn(-c3ccc(C#N)c(Cl)c3)c2C(=O)O1; test system = human, plasma; setting = 3 mg once daily, fasted; endpoint = tmax at steady state; value = 60 min

Some of these lines once more:
SMILES = N#C[C@H](O[C@@H]1O[C@H](CO[C@@H]2O[C@H](CO)[C@@H](O)[C@H](O)[C@H]2O)[C@@H](O)[C@H](O)[C@H]1O)c1ccccc1; test system = Sprague Dawley rat, plasma; setting = oral, 3.34 g lyophilized powder/kg, low dose; endpoint = Tmax; value = 28.8 ± 23.4 min
